Experimental data of several laboratories.
Each line is one published result; not all experiments were run side by side. ± marks the error that the study gave.
Chain of UniProt O15393 (whole entry, looked up): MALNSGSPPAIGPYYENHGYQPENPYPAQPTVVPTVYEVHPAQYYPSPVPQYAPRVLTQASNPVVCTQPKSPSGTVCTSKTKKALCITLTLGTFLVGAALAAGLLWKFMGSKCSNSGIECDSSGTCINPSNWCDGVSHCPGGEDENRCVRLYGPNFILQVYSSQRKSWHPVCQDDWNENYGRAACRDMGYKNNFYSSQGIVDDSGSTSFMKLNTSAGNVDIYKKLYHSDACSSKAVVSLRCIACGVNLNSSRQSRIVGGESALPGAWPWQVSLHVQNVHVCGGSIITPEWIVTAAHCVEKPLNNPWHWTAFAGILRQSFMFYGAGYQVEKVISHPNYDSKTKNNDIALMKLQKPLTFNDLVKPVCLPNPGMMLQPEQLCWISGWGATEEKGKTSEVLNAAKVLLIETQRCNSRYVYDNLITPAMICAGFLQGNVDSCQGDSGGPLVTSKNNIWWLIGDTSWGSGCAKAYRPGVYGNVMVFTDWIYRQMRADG
Chain of UniProt Q8IYT8 (whole entry, looked up): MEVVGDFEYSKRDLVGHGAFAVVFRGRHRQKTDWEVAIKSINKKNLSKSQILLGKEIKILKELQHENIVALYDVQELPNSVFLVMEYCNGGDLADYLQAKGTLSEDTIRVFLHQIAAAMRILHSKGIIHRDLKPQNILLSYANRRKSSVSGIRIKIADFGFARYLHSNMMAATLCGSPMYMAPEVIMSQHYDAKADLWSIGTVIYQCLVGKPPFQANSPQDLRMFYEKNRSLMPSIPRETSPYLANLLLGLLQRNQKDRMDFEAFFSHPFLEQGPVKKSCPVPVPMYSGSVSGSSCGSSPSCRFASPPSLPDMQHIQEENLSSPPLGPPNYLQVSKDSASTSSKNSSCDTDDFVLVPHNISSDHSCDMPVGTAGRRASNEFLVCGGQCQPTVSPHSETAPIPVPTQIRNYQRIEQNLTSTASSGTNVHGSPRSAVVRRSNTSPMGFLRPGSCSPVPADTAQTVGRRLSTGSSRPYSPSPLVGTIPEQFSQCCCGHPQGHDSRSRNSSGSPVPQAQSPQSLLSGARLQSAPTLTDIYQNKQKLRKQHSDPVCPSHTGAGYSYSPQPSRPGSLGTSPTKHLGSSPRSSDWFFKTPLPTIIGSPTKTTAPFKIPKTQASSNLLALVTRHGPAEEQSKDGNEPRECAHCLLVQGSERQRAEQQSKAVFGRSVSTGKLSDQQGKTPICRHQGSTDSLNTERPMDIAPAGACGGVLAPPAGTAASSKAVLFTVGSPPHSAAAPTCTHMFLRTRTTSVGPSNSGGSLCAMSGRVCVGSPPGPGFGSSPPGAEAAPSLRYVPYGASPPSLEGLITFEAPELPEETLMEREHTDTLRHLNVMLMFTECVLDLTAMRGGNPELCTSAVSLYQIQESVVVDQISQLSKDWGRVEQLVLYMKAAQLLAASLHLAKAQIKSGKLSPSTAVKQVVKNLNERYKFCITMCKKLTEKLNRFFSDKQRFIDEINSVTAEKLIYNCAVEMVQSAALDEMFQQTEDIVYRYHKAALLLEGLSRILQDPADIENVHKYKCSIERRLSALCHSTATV
Chain of UniProt P39135 (whole entry, looked up): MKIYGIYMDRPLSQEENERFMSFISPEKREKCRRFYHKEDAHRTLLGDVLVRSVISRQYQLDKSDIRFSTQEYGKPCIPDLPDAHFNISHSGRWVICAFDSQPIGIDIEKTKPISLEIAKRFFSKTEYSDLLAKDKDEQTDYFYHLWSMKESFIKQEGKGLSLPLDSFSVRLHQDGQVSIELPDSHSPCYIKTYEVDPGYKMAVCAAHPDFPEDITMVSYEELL
Chain of UniProt P48546 (whole entry, looked up): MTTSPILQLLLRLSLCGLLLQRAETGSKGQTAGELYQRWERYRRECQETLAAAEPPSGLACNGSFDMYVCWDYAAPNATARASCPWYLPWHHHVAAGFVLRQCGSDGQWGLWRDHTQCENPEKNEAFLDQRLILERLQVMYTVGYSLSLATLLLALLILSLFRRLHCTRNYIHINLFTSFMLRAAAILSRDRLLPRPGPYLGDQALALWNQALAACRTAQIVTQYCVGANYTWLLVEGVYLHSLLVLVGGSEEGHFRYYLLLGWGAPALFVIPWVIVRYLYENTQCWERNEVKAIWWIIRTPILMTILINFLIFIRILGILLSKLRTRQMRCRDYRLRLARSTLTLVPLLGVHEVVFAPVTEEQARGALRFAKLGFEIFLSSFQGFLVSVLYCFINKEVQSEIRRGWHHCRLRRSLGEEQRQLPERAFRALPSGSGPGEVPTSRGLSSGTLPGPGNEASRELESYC
Chain of UniProt P19256 (whole entry, looked up): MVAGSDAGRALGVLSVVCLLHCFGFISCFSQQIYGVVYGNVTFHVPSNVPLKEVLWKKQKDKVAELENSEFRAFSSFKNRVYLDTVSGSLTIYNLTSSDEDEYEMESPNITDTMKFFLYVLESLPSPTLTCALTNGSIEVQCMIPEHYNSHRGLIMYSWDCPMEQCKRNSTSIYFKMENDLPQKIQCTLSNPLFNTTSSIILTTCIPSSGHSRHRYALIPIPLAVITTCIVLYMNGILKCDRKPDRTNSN
Chain of UniProt Q2PAY2 (whole entry, looked up): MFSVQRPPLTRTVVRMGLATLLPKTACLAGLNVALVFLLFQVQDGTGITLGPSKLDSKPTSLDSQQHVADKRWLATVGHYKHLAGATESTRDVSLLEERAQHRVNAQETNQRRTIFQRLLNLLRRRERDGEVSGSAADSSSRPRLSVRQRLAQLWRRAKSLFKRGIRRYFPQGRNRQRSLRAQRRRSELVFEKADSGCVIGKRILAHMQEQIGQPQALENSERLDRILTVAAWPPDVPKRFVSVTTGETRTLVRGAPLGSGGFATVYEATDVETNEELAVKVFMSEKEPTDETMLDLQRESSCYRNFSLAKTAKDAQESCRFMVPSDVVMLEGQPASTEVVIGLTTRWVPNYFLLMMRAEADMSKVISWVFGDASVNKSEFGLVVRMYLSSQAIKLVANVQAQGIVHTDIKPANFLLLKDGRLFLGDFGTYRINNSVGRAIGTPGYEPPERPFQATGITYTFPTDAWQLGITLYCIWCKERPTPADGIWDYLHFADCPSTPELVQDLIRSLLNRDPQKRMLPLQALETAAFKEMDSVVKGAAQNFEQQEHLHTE
Chain of UniProt P35354 (whole entry, looked up): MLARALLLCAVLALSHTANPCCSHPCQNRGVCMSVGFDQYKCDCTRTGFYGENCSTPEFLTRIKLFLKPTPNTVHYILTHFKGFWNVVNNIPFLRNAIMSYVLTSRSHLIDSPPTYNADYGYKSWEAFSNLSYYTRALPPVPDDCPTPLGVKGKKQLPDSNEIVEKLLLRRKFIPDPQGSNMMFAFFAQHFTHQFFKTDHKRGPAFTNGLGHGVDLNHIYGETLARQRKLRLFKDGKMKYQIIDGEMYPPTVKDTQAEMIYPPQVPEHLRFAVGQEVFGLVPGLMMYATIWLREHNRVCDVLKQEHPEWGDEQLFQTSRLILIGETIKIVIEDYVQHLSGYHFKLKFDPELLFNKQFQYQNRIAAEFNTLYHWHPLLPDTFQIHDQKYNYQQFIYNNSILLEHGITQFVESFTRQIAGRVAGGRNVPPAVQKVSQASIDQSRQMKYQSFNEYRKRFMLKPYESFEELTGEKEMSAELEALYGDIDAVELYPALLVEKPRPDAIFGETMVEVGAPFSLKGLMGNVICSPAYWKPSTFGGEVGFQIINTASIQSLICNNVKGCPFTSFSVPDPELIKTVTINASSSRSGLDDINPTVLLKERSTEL

The IC50 of `C[C@H]1[C@@H](CC(=O)NCCCC(=O)N[C@@H](CC(=O)NC(C)(C)C)C(=O)NCCNC(=O)c2cc(-c3ccccc3F)ccc2F)O[C@@H]2O[C@@]3(C)CC[C@H]4[C@H](C)CC[C@@H]1[C@@]24O3` is reported as 0.0044 ± 0.0005 µM (20S proteasome (Plasmodium falciparum, UniProt A0A5K1K7U1+Q8IJT1); enzyme activity, inhibitor; added: suc-LLVY-AMC substrate, PA28alpha).
`C[C@@H]1NC(=O)[C@@H]2CSSC[C@H](NC(=O)[C@H](CC(=O)O)NC(=O)[C@H](CC(=O)O)NC(=O)CNC(=O)[C@H](CC(=O)O)NC(=O)[C@H](Cc3ccc(O)cc3)NC1=O)C(=O)N[C@@H](CCCCN)C(=O)N[C@@H](CO)C(=O)N[C@@H](C)C(=O)N1CCC[C@H]1C(=O)N1CCC[C@H]1C(=O)N[C@@H](CO)C(=O)N2` gave an IC50 of 0.023 ± 0.046 µM (Lymphocyte function-associated antigen 3 (CD58, Homo sapiens, UniProt P19256)).
`NS(=O)(=O)c1ccc(N/C=C2\C(=O)Nc3ccc4ncsc4c32)cc1` has an IC50 of 2.93 µM (ROP18 (Toxoplasma gondii, UniProt Q2PAY2); enzyme activity, inhibitor).
`COc1c(C[C@@H](O)C(C)(C)O)c(=O)n(C)c2ccccc12` gave an IC50 of greater than 500 µM (ACHE (Homo sapiens, UniProt P22303); enzyme activity, inhibitor).
For `CCN1C[C@H](C)n2c(c(O)c3c(=O)n(Cc4ccc(F)c(Cl)c4)nc(C(=O)NC)c32)C1=O`, the IC50 was 0.365 ± 0.045 µM (Gag-Pol polyprotein, integrase (gag-pol, Human immunodeficiency virus 1, UniProt P12497); concerted integration, inhibitor, measured: CHS products; 2 h, 37 °C).
The IC50 of `CCN(CC)CCCCNc1ncc2cc(-c3c(Cl)cccc3Cl)c(NC(=O)NC(C)(C)C)nc2n1` is reported as 3.35 µM (ERRα (human); reporter gene, antagonist, luciferase reporter qHTS).
With `Cc1cc(O)cc2c1O[C@](C)(CCC[C@H](C)CCC[C@H](C)CCCC(C)C)CC2` the IC50 was greater than 50 µM (PTGS2 (Homo sapiens, UniProt P35354); enzyme activity, inhibitor, ELISA).
With `CC(C)[C@H](NC(=O)[C@H](CCCNC(=N)N)NC(=O)N[C@@H](Cc1ccccc1)C(=O)O)C(=O)N[C@H](C=O)CCCNC(=N)N` the IC50 was 0.152 µM (TMPRSS2 (Homo sapiens, UniProt O15393); enzyme activity, inhibitor, fluorescence).
`Clc1ccc(C(c2ccc(Cl)cc2)n2cc[n+](CC(OCc3ccc(Cl)cc3Cl)c3ccc(Cl)cc3Cl)c2)cc1` (stereo not shown) gave an IC50 of 10 ± 1 µM (sfp (Bacillus subtilis, UniProt P39135); phosphopantetheinylation, inhibitor, fluorescence polarization; 45 min, pH 7.6, 10% DMSO, added: VibB 10 µM and rhodamine-CoA 5 µM).
For `CCCCCCCCCCCCCCCC(=O)N[C@@H](CCC(=O)NCCCC[C@H](NC(=O)[C@H](Cc1ccc(O)cc1)NC(=O)[C@H](CC(=O)O)NC(=O)[C@H](CO)NC(=O)[C@@H](NC(=O)[C@@H](O)Cc1ccccc1)[C@@H](C)CC)C(=O)N[C@H](C(=O)N[C@@H](C)C(=O)N[C@@H](CC(C)C)C(=O)N[C@@H](CC(=O)O)C(=O)N[C@@H](CCCCN)C(=O)N[C@H](C(=O)N[C@@H](CCCNC(=N)N)C(=O)N[C@@H](CCC(N)=O)C(=O)N[C@@H](CCC(N)=O)C(=O)N[C@@H](CCC(=O)O)C(=O)N[C@@H](Cc1ccccc1)C(=O)N[C@H](C(=O)N[C@@H](CC(N)=O)C(=O)N[C@@H](Cc1c[nH]c2ccccc12)C(=O)N[C@@H](CC(C)C)C(=O)N[C@@H](CC(C)C)C(=O)N[C@@H](C)C(=O)N[C@@H](CCC(N)=O)C(=O)N[C@@H](CCCCN)C(=O)NCC(=O)O)C(C)C)[C@@H](C)CC)[C@@H](C)CC)C(=O)O`, the IC50 was 0.00191 µM (GIPR (Homo sapiens, UniProt P48546); cAMP production, antagonist; BHK; 3 h, 37 °C, added: GIP 50 pM).
`CC(C)C[C@H](NC(=O)N1CCOCC1)C(=O)N[C@H](/C=C/S(=O)(=O)c1ccccc1)CCc1ccccc1` gave an IC50 of 0.011 µM (Papain (Carica papaya, UniProt P00784); enzyme activity, inhibitor, fluorescence; pH 5.5, with preincubation).
The IC50 of `C[C@@H]1C[C@H]2[C@@H]3CCC4=CC(=O)C=C[C@]4(C)[C@@]3(Cl)[C@@H](O)C[C@]2(C)[C@@]1(OC(=O)c1ccco1)C(=O)CCl` is reported as 1.2 ± 1 µM (ABCC1 (Homo sapiens, UniProt P33527); efflux, inhibitor, flow cytometry; SupT1 cells overexpressing ABCC1; added: SYTO 9 100 nM).
For `CNC(=O)c1ccccc1Oc1nc(Nc2cc(OC)c(OC)c(OC)c2)ncc1Br`, the IC50 was 0.711 µM (ULK2 (Homo sapiens, UniProt Q8IYT8); enzyme activity, inhibitor, radiometric).
For `O=C1Nc2ccc(S(=O)(=O)O)cc2C1=C1Nc2ccccc2C1=NO`, the IC50 was 8.63 µM (Putative glycogen synthase kinase (Leishmania major, UniProt Q4QE15, D105E); enzyme activity, inhibitor; 90 min, 30 °C, added: ATP 2 µM).
The IC50 of `CC(C)[C@H](CO)Nc1nc(Nc2cc(N)cc(Cl)c2)c2ncn(C(C)C)c2n1` is reported as greater than 10 µM (EGFR (Homo sapiens, UniProt P00533); kinase activity, ADP luminescence; added: 200 µM ATP).
For `O=C(O)CSc1cc(NS(=O)(=O)c2ccc(Br)cc2)c2ccccc2c1O`, the IC50 was 1.43 µM (Induced myeloid leukemia cell differentiation protein Mcl-1, with Bax (MCL1, Homo sapiens, UniProt Q07820); Bax binding, SPR).

A few entries again:
`COc1c(C[C@@H](O)C(C)(C)O)c(=O)n(C)c2ccccc12` gave an IC50 of greater than 500 µM (ACHE (Homo sapiens, UniProt P22303); enzyme activity, inhibitor).
For `CCN1C[C@H](C)n2c(c(O)c3c(=O)n(Cc4ccc(F)c(Cl)c4)nc(C(=O)NC)c32)C1=O`, the IC50 was 0.365 ± 0.045 µM (Gag-Pol polyprotein, integrase (gag-pol, Human immunodeficiency virus 1, UniProt P12497); concerted integration, inhibitor, measured: CHS products; 2 h, 37 °C).
